Measured values pooled from the literature.
Each line is one published result; not all experiments were run side by side. “And” joins repeats or separate records; there may be more than shown. Values after ≈ are worked out from the molar mass of the structure shown.

SMILES | target or system | test | test system | conditions | scale | measurement | value
CC[C@H](C)[C@@H]1NC(=O)[C@@H]2CCCN2C(=O)[C@H](CC(C)C)NC(=O)[C@H](CC(C)C)NC(=O)CNC(=O)[C@@H](NC(=O)[C@@H](NC(=O)[C@H](CC(=O)O)NC(=O)CNC(=O)[C@@H](NC(=O)[C@H](C)NC(=O)CNC(=O)[C@H](CCCCN)NC(=O)[C@H](CC(C)C)NC(=O)[C@H](CC(C)C)NC(=O)[C@H](CCCCN)NC(=O)CNC(=O)[C@@H](NC(=O)[C@@H](N)CC(C)C)C(C)C)C(C)C)C(C)C)CSSC[C@@H](C(=O)O)NC1=O | – | RNA-seq, item: Phospho1 | mouse, traumatic brain injury model, frontal cortex and hippocampus | dose not given | baseline: TBI alone | log2 fold change | -2.11
COc1ccc(-n2nc(C(C)=O)s/c2=N\N=C(/C)c2ccc(NC(C)=O)cc2)cc1 | WI-38 | – | – | 0.312 µM | – | toxicity | 96.3%
CS(=O)(=O)CCCn1c(Cn2c(=O)n(CC(F)(F)F)c3ccncc32)cc2cc(Cl)ccc21 | respiratory syncytial virus | RT-qPCR | hospitalized infants 1-24 months, nasal swab | oral, 9, 6 or 5 mg/kg daily, day 6, high dose by age cohort | baseline: baseline | LS mean viral load change | -2.76 log10 copies/mL
COc1cc(CCC[P+](c2ccccc2)(c2ccccc2)c2ccccc2)c(OC)c2c1OCO2.[I-] | SF-295 | SRB | – | – | – | GI50 | -5.63 log M
Nc1ncnc2c1ncn2[C@@H]1O[C@@H]2COP(=O)(O)O[C@H]3[C@@H](O)[C@H](n4cnc5c(=O)[nH]cnc54)O[C@@H]3COP(=O)(O)O[C@H]2[C@H]1O | Zika virus | upregulated Reactome pathway, RNA sequencing, item: Programmed Cell Death (R-HSA-5357801) | HFF-1 | – | baseline: ZIKV-infected untreated | fold enrichment | 3.27
OC(Cn1cncn1)(Cn1cncn1)c1ccc(F)cc1F | Saccharomyces cerevisiae | cell growth | Pdr5 deleted, empty vector | 2^-1.515 µg/mL | – | OD600 | 0.173 and 0.149 and 0.194
COC(=O)c1cccc(-c2ccc3c(c2)C=C2C(=O)CCCC2O3)c1[N+](=O)[O-] (stereo not drawn) | Schistosoma mansoni | microscopic viability scoring | newly transformed schistosomula | 10 µM, 72 h, prescreen | – | viability reduction | 20%
COc1c(CCC[P+](c2ccccc2)(c2ccccc2)c2ccccc2)cc2c(c1OC)OCO2.[I-] | RPMI-8226 | SRB | – | – | – | TGI | -5.77 log M
CC[C@H](C)[C@H](NC(=O)[C@H](C)NC(=O)[C@H](CCCCN)NC(=O)[C@H](CC(C)C)NC(=O)[C@H](C)NC(=O)[C@@H](NC(=O)[C@H](Cc1c[nH]cn1)NC(=O)[C@H](CC(C)C)NC(=O)[C@@H](NC(=O)[C@@H](NC(=O)[C@H](CCCCN)NC(=O)[C@H](C)NC(=O)[C@H](C)NC(=O)[C@H](CO)NC(=O)[C@H](CCCCN)NC(=O)[C@H](Cc1ccccc1)NC(=O)[C@@H](NC(=O)[C@H](CCCCN)NC(=O)[C@H](CC(C)C)NC(=O)[C@H](Cc1ccccc1)NC(=O)[C@H](CO)NC(=O)[C@H](CCCCN)NC(=O)[C@H](Cc1c[nH]c2ccccc12)NC(=O)[C@H](CCCCN)NC(C)=O)[C@@H](C)O)[C@@H](C)O)C(C)C)[C@@H](C)O)C(=O)N[C@@H](CO)C(=O)N[C@@H](CO)C(N)=O | Acinetobacter baumannii | – | IPM-S | 33 strains | – | MIC geometric mean | 3.17 µg/mL (≈ 1.08 µM)
Clc1cccc(Cl)c1CSc1nc2ccccc2s1 | Schistosoma mansoni | microscopic viability scoring | newly transformed schistosomula | 10 µM, 72 h, prescreen | – | viability reduction | 6.9%
CCCCCn1cc(C(=O)C2C(C)(C)C2(C)C)c2ccccc21 | – | hypothermia, mouse tetrad, item: rectal temperature | ICR mouse male | intravenous | – | ED50 | 0.6 µmol/kg
CCCCC1(CCCC)CN(c2ccccc2)c2cc(SC)c(OCC(=O)N[C@@H](C(=O)NCC(=O)O)c3ccccc3)cc2S(=O)(=O)C1 | – | item: HDL cholesterol | human, serum | 5 mg once daily, day 9 | – | serum HDL-C | 48.3 mg/dL
COc1ccc(N2C(=O)N(c3c(C)cccc3Cl)Cc3cnc(Nc4ccc(C5CCN(C)CC5)cc4OC)nc32)nc1 | CK1, human | kinase activity | – | 0.5 µM | – | inhibition | 5.53%
CN1CCN(S(=O)(=O)c2cc([N+](=O)[O-])ccc2N(CCOS(C)(=O)=O)CCOS(C)(=O)=O)CC1 | – | – | NSG mice, sample CJ PDX | intraperitoneal, 25 mg/kg weekly x3 | baseline: vehicle | EFS delay (T-C) | > 142 days
CNC(=O)Oc1cccc2c1OC(C)(C)C2O (stereo not drawn) | SH-SY5Y | neurite outgrowth inhibition, phase-contrast imaging | – | freely dissolved concentration | – | EC10 | 4.81 µM
COC(=O)c1ccc(/C(=C2/N=C(C)C=C2C)c2c(C)cc(C)n2B(F)F)cc1 | Schistosoma mansoni | microscopic viability scoring | newly transformed schistosomula | 10 µM, 72 h, prescreen | – | viability reduction | 27.6%
Clc1ccc(-c2ccc(Cl)cc2Cl)cc1 | gap junction, rat | gap junctional communication, scrape loading dye transfer | WB-F344 rat liver epithelial | 1 h | – | IC25 | 14 µM
COc1ccc2c[n+](C)c3ccc(OC)cc3c2c1 | Schistosoma mansoni | microscopic viability scoring | newly transformed schistosomula | 10 µM, 72 h, prescreen | – | viability reduction | 20%
Cc1c2c(nn1C)CSCc1cc(n(C)n1)CSc1cc(c3ccccc3c1)OCCCc1c(C(=O)O)n(C)c3c-2c(Cl)ccc13 | Staphylococcus aureus | label-free quantitative proteomics, item: SAOUHSC_00659 protein | SA113 | concentration not given | baseline: untreated control | fold change | 15.6
CC[C@@H](C)[C@@H](NC(=O)[C@@H](Cc1ccc(O)cc1)NC(=O)[C@H]1CCCN1C(=O)[C@@H](CCCNC(=N)N)NC(=O)[C@H](N)Cc1c[nH]cn1)C(=O)N[C@H](C)C(=O)N[C@H](Cc1c[nH]cn1)C(=O)N[C@H](CCCNC(=N)N)C(=O)N[C@H](CCCCNC(=O)c1cccc(S(=O)(=O)F)c1)C(=O)N[C@H](Cc1ccc(O)cc1)C(=O)N[C@H](CO)C(=O)N[C@H](Cc1ccccc1)C(N)=O | – | ex vivo flow cytometry | GL261-Luc brain tumour mice, tumour | dose not given | – | IFN-γ+ CD4+ T cell frequency | 4.55% and 4.34% and 8.34%
C[C@@H]1C[C@@]2(N=CCS2)[C@]2(O)O[C@@H]3C[C@@]4(C=O)[C@@H](CC[C@@H]5[C@@H]4CC[C@]4(C)[C@@H](C6=CC(=O)OC6)CC[C@]54O)C[C@H]3O[C@@H]2O1 | Schistosoma mansoni | microscopic viability score | adult worms | 10 µM, 24 h | – | viability effect | 92%
